Assay results gathered from unrelated publications.
Protocols differ between the studies behind these lines. Several values in a cell are separate wells, animals, samples, runs or records. ± gives the spread as reported. Converted amounts (≈) assume the structure as drawn.
CDK2 with cyclin A: Cyclin-dependent kinase 2, with cyclin A (CDK2, Homo sapiens, UniProt P24941)

`CNC(=O)c1cc(Oc2ccc(NC(=O)Nc3ccc(Cl)c(C(F)(F)F)c3)cc2)ccn1` has a BUN of 23 ± 2.53 mg/dL (NOD-SCID mouse, serum; ip, 30 mg/kg).
`CC(C)(C(=O)N1CCOc2c(C#N)cncc2C1)C(F)F` — result for “subjects with adverse event”: 12.5% (refers to: Restlessness; human; oral, 20 mg twice daily, 14 days, multiple ascending dose).
The measured concentration of `CC(C)=CC[C@@H](O)C1=CC(=O)c2c(O)ccc(O)c2C1=O` is reported as 0.48 ± 0.03 ng/mL (plasma; 0.5 ng/mL, 3 freeze-thaw cycles at -80 °C).
With `O=C(Cn1cnc([N+](=O)[O-])n1)Nc1ccc(N2CCOCC2)c(Cl)c1` the Kd was > 100 µM (CDK2 with cyclin A).
The unbound AUC of `COCC(=O)N1CCC[C@H](C(=O)NCc2nc(-c3ccc(C#N)cc3)cs2)C1` is reported as 1.3 µM·h (Sprague-Dawley rat, male, plasma; oral, 3 mg/kg).
For `CNCc1ccc(-c2[nH]c3cc(F)cc4c3c2CCNC4=O)cc1`, “patients with adverse event” read 17.9% (refers to: Dyspnea; human patients; oral, dose not given, all grades, all doses).
`O=C(Nc1nc2cccc(-c3ccc(CN4CCS(=O)(=O)CC4)cc3)n2n1)C1CC1`: “treatment-emergent adverse events” 0% (refers to: metabolism and nutrition disorders; human rheumatoid arthritis patients; oral, 300 mg once daily, 4 weeks, regardless of relatedness).
Under “mean corpuscular volume”, `CCc1cc(C(=O)NC)c2nccc(N3CCc4c(cc(Cn5ccnc5)cc4-c4cn(C)nc4C(F)(F)F)C3=O)c2c1` is recorded as 67.2 ± 1.05 fL (Sprague Dawley rats; oral, 100 mg/kg once daily, 7 days).
`C[C@@H](N)C1CCN(S(=O)(=O)c2cccc3cnccc23)CC1` — result for “participants with mental impairment”: 0% (healthy volunteers; 75 mg, fasted).
`Cn1cc(-c2ccc(-c3cncc(Cl)c3N3CCC4(CCNC4=O)CC3)cc2)cn1`: “log2 fold change” 2.02 (COLO 205; gene expression, microarray, refers to: ANXA2 mRNA; concentration not given, 2 h; relative to: untreated cells).
With `COc1ccc2c(c1)CN(C(=O)CCN1CCC(Cc3ccccc3)CC1)CC[S@@+]2[O-]` the PQ interval was 87 ± 6 ms (telemetry; conscious male beagle dogs; intravenous, 8 mg/kg, 2 h).
`C[C@H]1Oc2cc(cnc2N)-c2c(nn(C)c2C#N)CN(C)C(=O)c2ccc(F)cc21`: “average steady-state concentration” 580 nmol/L (human, plasma; recommended dose, total).
With `Cc1cccc(CNC(=O)c2cn(CCNC(=O)c3ccccc3Sc3c([N+](=O)[O-])ncn3C)c3cc4c(cc3c2=O)OCO4)n1` the remaining compound was 72.5% (Beagle dog, whole blood; 1 µM, 1.5 h).
`O=C1NCCc2nc(OCc3cccc(F)c3)ccc21`: “Irwin test score” 0.4 (refers to: Mydriasis; Sprague-Dawley rat, male; oral, 100 mg/kg, 1 h, score 0 none to 2 full; direction not given).
`Cc1cc(/C=C2\Sc3ccccc3N2CCCN2CCC(C)CC2)c2ccccc2[n+]1C` gave a hemolysis of < 5% (human erythrocytes, 2%; 32 x MIC (S. aureus ATCC 29213), 1 h).
With `C=CCN1CC(=O)N2[C@@H](Cc3ccc(O)cc3F)C(=O)N(Cc3cccc(N4CC(N5CCN(CC)CC5)C4)n3)C[C@@H]2N1C(=O)NCc1ccccc1` the treatment-related diarrhoea was 0% (advanced solid tumour patients; oral, 15 mg twice daily, any grade, dose-escalation).
`Cc1cc(Nc2ccc(S(F)(F)(F)(F)F)cc2)n2nc(C(C)(F)F)nc2n1`: “patients with QTcB increase” 0% (Plasmodium falciparum; 12-lead ECG; malaria patients; oral, 400 mg, increase above 60 ms).
The tissue/plasma ratio of `COc1ccc2c(=O)n(C)c(-c3ccccc3)nc2c1` is reported as 28.6 (Sprague-Dawley rat, male, liver; oral, 30 mg/kg, 2 h; relative to: liver over plasma).
`O=C(Nc1cnccc1Cl)N1CCN(Cc2ccc3c(c2)OC(F)(F)O3)CC1` gave a dose-normalized AUC(0-tau) of 655 ng·h/mL (young men, plasma; oral, 10 mg once daily, day 10, normalized to 10 mg).
The plasma concentration of `COc1cccc(-c2n[nH]c(SCc3ccccn3)n2)c1OC` is reported as 1490 ng/mL (Sprague-Dawley rats, both sexes; oral dietary, 30 mg/kg/day, day 7, 12 h).
For `N#Cc1ccc2c(c1)[C@H]1CCCN(C(=O)c3ccc4[nH]cnc4c3)[C@H]1C2`, “minimum ACTH level” read 1.3 pmol/L (human; 160 mg, end of trial).
The aqueous solubility of `O=[N+]([O-])c1cn2c(n1)OC[C@@H](OCc1ccc(N3CCOCC3)cc1)C2` is reported as 22.2 µg/mL (≈ 61.6 µM) (aqueous buffer; pH 7.4).
For `C[C@H](CCC(=O)NCCS(=O)(=O)O)[C@H]1CC[C@H]2[C@@H]3[C@H](O)C[C@@H]4C[C@H](O)CC[C@]4(C)[C@H]3C[C@H](O)[C@]12C`, “relative peak deviation” read 102 ± 11% (human, plasma; endogenous baseline diurnal; relative to: daily mean concentration).
Under “patients discontinuing for AE”, `C[C@@H](Nc1cc(F)cc(F)c1)c1cc(C(=O)N(C)C)cc2c(=O)cc(N3CCOCC3)oc12` is recorded as 0% (refers to: Hydronephrosis; advanced solid tumour patients; oral, dose not given, dose finding).
Under “pulse rate AUEC, mean”, `NC(CO)(CO)CCc1ccc(Sc2cccc(OCc3ccccc3)c2)cc1Cl` is recorded as 18800 h×bpm (human, supine; oral, 3 mg, 0 to 312 h, with: cyclosporin 100 mg).
With `CC(C)[C@H](C(=O)Nc1ccc(C(=O)NO)cc1)c1ccccc1` the measured concentration was 1000 ng/mL (whole blood; 1000 ng/mL, 0 h, 4 °C, stability on ice).
For `CCn1c(C(=O)N(C2CC2)C2CC2)cc2c3c(ncn3C)c(Nc3cc(C)n(C)n3)nc21`, the plasma concentration was 7020 ng/mL (cancer patients; oral, 200 mg twice daily, day 15, 337.0 h).
For `O=C(c1cccnc1-c1ccncc1)N1CCC(O)(Cc2ccccc2)CC1`, “terminal elimination rate constant” read 7.5e-05 s⁻¹ (healthy Japanese adults, plasma; oral, 300 mg twice daily, day 21).
With `CC(C)Oc1c(NC(=O)c2ccc(NC(=O)[C@H](CC(N)=O)NC(=O)c3ccc(/N=N/c4ccccc4)cc3)cc2)ccc(C(=O)N/N=C/c2ccc(C(=O)O)s2)c1O` the thermal half-life was 3 h (absorbance; DMSO; 45 °C, PSS to ground state relaxation).
The tissue uptake of `CC(C)C[C@H](NC(=O)C[C@H](O)[C@H](CC(C)C)NC(=O)[C@H](Cc1c[nH]cn1)NC(=O)CNC(=O)[C@@H](NC(=O)[C@H](C)NC(=O)[C@H](Cc1c[nH]c2ccccc12)NC(=O)[C@H](CCC(N)=O)NC(=O)[C@@H](Cc1ccccc1)NC(=O)COCCOCCNC(=O)CCC(C(=O)O)N1CCN(CC(=O)O)CCN(CC(=O)O)CCN(CC(=O)O)CC1)C(C)C)C(N)=O` (some centres unmarked) [lutetium-177 labelled] is reported as 0.32 ± 0.03 %ID/g (BALB/c nu/nu mice, female, bone; 50 pmol, 1 h, with: PA 300 µg).
With `CC(C)[C@H](NC(=O)[C@H](Cc1ccc(O)cc1)NC(=O)[C@H](Cc1ccc(O)cc1)NC(=O)[C@@H]1CCCN1C(=O)[C@H](CCC(=O)O)NC(=O)[C@H](CCC(=O)O)NC(=O)[C@H](Cc1c[nH]c2ccccc12)NC(=O)[C@@H]1CCCN1C(=O)[C@@H](NC(=O)[C@H](CCC(N)=O)NC(=O)c1ccc2c(c1)C(=O)OC21c2ccc(O)cc2Oc2cc(O)ccc21)C(C)C)C(=O)N[C@H](C(=O)N[C@@H](CCCCN)C(=O)N[C@@H](CCCCN)C(=O)N[C@@H](CO)C(=O)N[C@@H](CO)C(=O)NCC(=O)NCC(N)=O)C(C)C` the plasma concentration was 288 ng/mL (refers to: total compound; human, plasma; intravenous infusion, 40 mg, 30 min).
`O=C(O)CCC(=O)O.[2H]C([2H])([2H])Oc1cc(C)c2[nH]ccc2c1CN1CC[C@@H](C2CC2)C[C@H]1c1ccc(C(=O)O)cc1` — result for “TEAE decreased fibrinogen”: 8.3% (healthy Chinese subjects; 200 mg, single ascending dose).
With `COc1ccc(NC(=O)CN2CCOCC2)c([N+](=O)[O-])c1` the Kd was > 100 µM (CDK2 with cyclin A).
For `O=C(O)CSc1nnc(Br)n1-c1ccc(C2CC2)c2ccccc12`, the body weight was 32.2 g and 36 g and 37.8 g and 37.3 g and 34.5 g and 42.1 g (KM mouse, chronic hyperuricaemia model; dose not given, day 24).
`O=C1CC[C@H](N2Cc3cc(N4CCN(CC5CCN(c6ccc([C@@H]7c8ccc(O)cc8CC[C@@H]7c7ccccc7)cc6)CC5)CC4)ccc3C2=O)C(=O)N1` — result for “participants with TRAE hot flush”: 0% (human; oral, 200 mg, with: dabigatran etexilate 75 mg).
For `Cc1ccc(C)c(OCCCC(C)(C)C(=O)O)c1`, “geometric mean ratio” read 0.59 (refers to: AUC0-∞; human subjects, plasma; oral, dose not given, with: lopinavir-ritonavir; relative to: with over without lopinavir-ritonavir).
The concentration of `CC(C)Oc1c(NC(=O)c2ccc(NC(=O)[C@H](CC(N)=O)NC(=O)c3ccc(NC(=O)c4ccc(C#N)cc4)cc3)cc2)ccc(C(=O)Nc2ccc(C(=O)O)cc2)c1O` is reported as 102 ± 3.6 ng/mL (Escherichia coli ATCC 25922; neutropenic male CD-1 mice, muscle; iv then sc, 67.5 mg/kg/day, 24 h after infection, thigh infection model).
For `CN(C(=O)n1cnc(-c2cccnc2)c1)C1CCCCC1`, the concentration was 7.8 ± 0.2 ng/g (Wistar rat, pons; oral, 10 mg/kg/day of BIA 10-2474, 48 h, repeated 5 days).
`COc1ncc(-c2nc3c(n2C(C)C)[C@H](c2ccc(Cl)cc2)N(c2cc(Cl)cn(C)c2=O)C3=O)c(OC)n1` has a median Tmax of 2 h (human patients, plasma; oral, 12.5 mg, high-dose arm, cycle 2 day 1).
For `N#Cc1ccc(C(c2ccc(C#N)cc2)n2cncn2)cc1`, the tumour concentration was 23 ± 9.5 ng/g (human patients, tumour tissue at surgery; 2.5 mg daily).
`Cc1ccc([C@@H]2O[C@H](CO)[C@@H](O)[C@H](O)[C@H]2O)cc1Cc1ccc(-c2ccc(F)cc2)s1` — result for “urinary chloride excretion change”: -27.1 mEq (Japanese type 2 diabetes patients; 200 mg, day 2, 24 h urine collection; relative to: baseline).
With `NC[C@@H]1O[C@H](O[C@H]2[C@@H](O)[C@H](O[C@@H]3[C@@H](O)[C@H](N)C[C@H](N)[C@H]3O[C@H]3O[C@H](CO)[C@@H](O)[C@H](O)[C@H]3N)O[C@@H]2CO)[C@H](N)[C@@H](O)[C@@H]1O` the body weight was 20.7 g and 23.4 g and 23.3 g and 25.3 g and 23.6 g and 21 g and 22.7 g (NSG mice; dose not given, day 4 of treatment).
`CC[C@@H]([C@H](C)O)n1ncn(-c2ccc(N3CCN(c4ccc(OC[C@@H]5CO[C@@](Cn6cncn6)(c6ccc(F)cc6F)C5)cc4)CC3)cc2)c1=O` — result for “stability relative error”: 0% (rat plasma; 1600 ng/mL, 4 h, 10 °C, autosampler; relative to: nominal concentration).
`Oc1ccc(/C=C/c2cc(O)cc(O)c2)cc1` has a chloride of 104 mEq/L and 100 mEq/L and 101 mEq/L (rat, azoxymethane-injected, blood at sacrifice; 100 mg/kg).
`CCOc1c([C@H](C)n2nc(C)c3c(N)ncnc32)cc(Cl)c(F)c1[C@@H]1CNC(=O)C1` — result for “stability relative error”: 8.1% (rat plasma; 5 ng/mL, 3 h, room temperature; relative to: nominal concentration).
`C[C@@H]1CCO[C@H]2Cn3cc(C(=O)NCc4ccc(F)cc4F)c(=O)c(O)c3C(=O)N12` has an AUC(0-24) of 34200 ng·h/mL (population PK, post-hoc; infants aged ≥1 months, 3 to <6 kg, plasma; oral, 4.8 mg granules, steady state, geometric mean).
For `CCO`, “blood triglycerides increased” read 0% (human; concentration not given, treatment-emergent adverse event).

A few entries again:
`O=C(Nc1nc2cccc(-c3ccc(CN4CCS(=O)(=O)CC4)cc3)n2n1)C1CC1`: “treatment-emergent adverse events” 0% (refers to: metabolism and nutrition disorders; human rheumatoid arthritis patients; oral, 300 mg once daily, 4 weeks, regardless of relatedness).
Under “patients discontinuing for AE”, `C[C@@H](Nc1cc(F)cc(F)c1)c1cc(C(=O)N(C)C)cc2c(=O)cc(N3CCOCC3)oc12` is recorded as 0% (refers to: Hydronephrosis; advanced solid tumour patients; oral, dose not given, dose finding).
`Cn1cc(-c2ccc(-c3cncc(Cl)c3N3CCC4(CCNC4=O)CC3)cc2)cn1`: “log2 fold change” 2.02 (COLO 205; gene expression, microarray, refers to: ANXA2 mRNA; concentration not given, 2 h; relative to: untreated cells).
`C[C@@H](N)C1CCN(S(=O)(=O)c2cccc3cnccc23)CC1` — result for “participants with mental impairment”: 0% (healthy volunteers; 75 mg, fasted).
`COc1ncc(-c2nc3c(n2C(C)C)[C@H](c2ccc(Cl)cc2)N(c2cc(Cl)cn(C)c2=O)C3=O)c(OC)n1` has a median Tmax of 2 h (human patients, plasma; oral, 12.5 mg, high-dose arm, cycle 2 day 1).
With `O=C(Cn1cnc([N+](=O)[O-])n1)Nc1ccc(N2CCOCC2)c(Cl)c1` the Kd was > 100 µM (CDK2 with cyclin A).
With `COc1ccc(NC(=O)CN2CCOCC2)c([N+](=O)[O-])c1` the Kd was > 100 µM (CDK2 with cyclin A).
For `CNCc1ccc(-c2[nH]c3cc(F)cc4c3c2CCNC4=O)cc1`, “patients with adverse event” read 17.9% (refers to: Dyspnea; human patients; oral, dose not given, all grades, all doses).
